Results from different studies.
Parts stem from different laboratories: compare values within a part only.

Sample 1
Target: RNA binding protein fox-1 homolog 2, RRM domain, GST-SBP tag (RBFOX2, Homo sapiens, UniProt O43251-10, residues 100-194)
Technique: RNA Bind-n-Seq
Molecule type: RNA
Medium: in vitro
Tested at: 365 nM
Notes: natural RNA segment, single round, ends assumed
Relative to: no-protein control
Reading: higher = stronger binding
All sequences stand within: GGGAGUUCUACAGUCCGACGAUC … UGGAAUUCUCGGGUGCCAA
Construct (chain): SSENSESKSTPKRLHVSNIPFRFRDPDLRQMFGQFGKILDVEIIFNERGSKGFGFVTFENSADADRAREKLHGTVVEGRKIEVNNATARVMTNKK
Oligonucleotide | RBNS enrichment (R)
CUUCCAUUCCUGGUUUUAGGGCAGAAUCCAUGGAGACUGCUUCCAGAAGGCAUCUGGCUCUGAGUUAUAAAUUACUUCCCUGGUCCUGACAGUCACCUGGGGUCCCCCCU | 0.299
AAAAGGGAUACCGUGGGACUCUGCCCGUCUCUUUCAUAACGCAAUAUUUAUUUGUAUUGGGUGAUGAUUGAUUCUUUCGACCUAACAUUUUGGGUUUUAACCAAAUAACC | 0.206
AUUUUUAUAUUUUUCAAUGCACUUAAUUAUUGUUUUUAUAUAAUUAUUUGUACUAACUCAGCAUGUAACAACCAAUUUACAUAGAAAUAAAUUGAAAUAUGUUAACUACA | 1.1
CUUGGAUCUGGAAAGAUAACUCAACAGUCAAGAGUACUGGUUGUUCUUCCCCAAGGACCAAGGUUCAAUUCCUAGCACCCAUAUGACUGCUCACAGGCACCUGUAACUCC | 1.02
GAUGGAGCUCCCCCUCCCCACAGGGCUGCCAUUACCAGACCACGGCCCUGCAGGGCCCUGGGCUCCUGUCUGCUGAUGCUGCCCGCCUCACCUGCAGAGGUGCCCAUCAG | 0.498
GUGAUGUCACAGUGCAAACUGCAGUGACUGUAAAUUGGCCUGGCGUGUAUAAACGUUUUCAGGGAAUGCAGAAGGUAUUAAUGAAGAGACAAAACCUUUAUUCCAUGUGC | 0.967
UAAUGGCACUUUUGUCUUGUAGCUAUUUUGAGAUGUGGUCCAGAGCAUUUCAGCUGGGAGAUCUCCCUCUGGCCACCAGGACUCUGGCUACUGUUAAAAUCCUGAUGUUU | 0.802
GGCAAUCUAUGACUCACCUUGCUCUGCCAUCCCUGGCAGCCCCCACCGGUGUCCUGUUCCUGCCACAUGGAGCUUGACUUCAUGCCAGCUAUAAUCUCCCCUGCCUUCCU | 0.277
AAAAGGCUCUUGUACAAAAUGUAGAUUAAAAUUUGGGUGAUUGUUGAUUGACCUUUGCAUACCCUGGAAAGCCAGGGUGUGAGUGGGGUGGUUGGGAGUGGUGCCAGUUG | 0.944
GCAUGGGUGUGUCUGGCCUCAUUCUGUAUCAGUCCAGUGUGUUCCUGUCAUAGUUUGUGUCUCCCAGGCAGGCCAUGGUAGGGGCCUCGCAGGGGCCAUUGGGGAGCACA | 2.82
AAGUCAAACGAGGAAUUUAAAAAAGCAAAAGUUGACCGAAGGUGCAUUUUUGUUUAGACUCCCUGAGGUUCCGUUUUACACAUGAUCCAACGUUAACUACCUUUUUUUCU | 0.483
UCUGGCAUGUGAGUGCAUAUGUGUGACUGCCCCACUGUGGGACCUGCCACAUCCCUCCAUCCAUGUCUUUUCUGUGUCCUUUGCACGUGUGAGUGCUCGAGUGUAUGUGC | 5.48

Sample 2
Target: Interferon regulatory factor 3, full length, phosphomimetic (IRF3, Homo sapiens, UniProt Q14653, residues 1-427, S386D/S396D/S398D/S402D/T404D/S405D)
Technique: protein-binding microarray
Molecule type: double-stranded DNA, one strand shown
Medium: in vitro
Tested at: 2540 nM top
Notes: 60-bp whole probe
Added: salmon DNA 0.4 mg/ml
Relative to: random background probes
Reading: higher = stronger binding
All sequences stand within: GCCTAGCAC … GTCTTGATTCGCTTGACGCTGCTG
Residues (chain): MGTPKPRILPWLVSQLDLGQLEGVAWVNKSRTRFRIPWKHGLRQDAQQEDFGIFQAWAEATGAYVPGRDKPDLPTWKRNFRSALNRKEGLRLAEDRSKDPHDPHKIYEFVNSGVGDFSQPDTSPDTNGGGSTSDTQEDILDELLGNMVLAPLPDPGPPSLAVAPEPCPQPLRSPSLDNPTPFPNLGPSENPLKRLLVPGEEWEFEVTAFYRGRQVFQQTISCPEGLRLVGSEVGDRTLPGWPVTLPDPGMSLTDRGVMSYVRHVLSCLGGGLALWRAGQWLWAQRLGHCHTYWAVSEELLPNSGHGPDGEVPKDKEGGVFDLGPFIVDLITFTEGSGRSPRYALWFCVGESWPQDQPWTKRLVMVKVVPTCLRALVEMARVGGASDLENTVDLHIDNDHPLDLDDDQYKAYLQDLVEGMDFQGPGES
Oligonucleotide | fitted relative affinity
GGTCATGTCTGTGTCACAGAGTGCTAG | 0.323 z-score
GACGTACTGGACTATCGGGACGTGCTA | -0.221 z-score
GACGGTATCGGGACTGGGCACGTGCTA | 1.65 z-score
TCTTTTTATGCTTTCTTTAAGTGCTAG | 1.57 z-score
GACAATTTCGGGACTGGAGACGTGCTA | 1.58 z-score
GACGGTTTCCTATTCCTGACGTGCTAG | 7.08 z-score
TTTATTTATTTATTTATTTAGTGCTAG | 1.03 z-score
TTAGAACTGGGGTATCCATTAGTGCTA | -0.147 z-score
TTAGGACTGGACTTACGGTTAGTGCTA | -0.493 z-score
GACTGACTGCTACTGCTGACGTGCTAG | -0.673 z-score
GACGGACTGCACTTTCGGGACGTGCTA | 0.612 z-score
GACGTTTCCGGTTTCGGGACGTGCTAG | 5.62 z-score
GACGGACTGGACATTCGGGACGTGCTA | -0.417 z-score
GACGTTTTCAGTATCGAGACGTGCTAG | 2.59 z-score
GACGAGCTGAGTTTCGAGACGTGCTAG | 1.03 z-score
TTAGGACTGTGTATCGGTTAGTGCTAG | 0.97 z-score

Sample 3
Target: Eukaryotic initiation factor 4A-I (EIF4A1, Homo sapiens, UniProt P60842, residues 1-406, full length assumed)
Sequence of UniProt P60842 (whole entry, looked up): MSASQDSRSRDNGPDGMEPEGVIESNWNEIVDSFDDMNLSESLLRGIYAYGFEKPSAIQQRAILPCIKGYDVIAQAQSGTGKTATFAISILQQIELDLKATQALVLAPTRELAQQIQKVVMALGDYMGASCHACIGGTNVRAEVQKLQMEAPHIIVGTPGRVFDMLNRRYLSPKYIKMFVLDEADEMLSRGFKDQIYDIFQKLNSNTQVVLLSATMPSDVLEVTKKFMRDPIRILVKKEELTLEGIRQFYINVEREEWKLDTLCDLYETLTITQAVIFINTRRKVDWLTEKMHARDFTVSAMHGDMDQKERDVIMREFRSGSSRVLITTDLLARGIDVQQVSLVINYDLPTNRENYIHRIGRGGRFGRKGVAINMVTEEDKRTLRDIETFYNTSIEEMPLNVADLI
Technique: RNA Bind-n-Seq
Molecule type: RNA
Medium: in vitro
Tested at: 90 pmol
Notes: 4-mer, random 30-nt RNA, single round
Added: 3 µM DMDA-PatA, 2 mM ADP, 2 mM phosphate
Relative to: input library
Reading: higher = stronger binding
Oligonucleotide | 4-mer enrichment
GACU | 0.674 fold
AAUC | 0.716 fold
CGUG | 1.31 fold
CCGA | 0.595 fold
CGUC | 0.767 fold
UACC | 0.603 fold
AAUA | 1.03 fold
UGAA | 1.14 fold
UAGA | 0.996 fold
CACG | 0.615 fold
CUGA | 0.656 fold
AUAC | 0.686 fold
UCAG | 0.883 fold
GGAC | 0.691 fold
GCUU | 0.624 fold
AAUG | 1.18 fold
CUAU | 0.656 fold

Sample 4
Target: Sal-like protein 4, full length isoform B (SALL4, Homo sapiens, UniProt Q9UJQ4-2, residues 1-616)
Technique: universal PBM
Molecule type: double-stranded DNA, one strand shown
Medium: in vitro
Tested at: not given
Notes: 8-mer, flanks averaged, mean of replicates
Reading: higher = stronger binding
Oligonucleotide | E-score
GTGGGAAC | -0.227
ACTCAGGG | -0.283
GGTCATCA | 0.0894
AGAGCGCA | -0.228
CAGTATAA | 0.31
ACCTGTCC | -0.0656
GCAAGTCC | -0.21
CCCGTGGA | -0.264
CGTCCTCA | -0.051
ATTGTCTG | 0.189
GAGAAGGA | -0.0947
AGCCCAAG | -0.0876
CAGGGCAG | -0.209
CGACCGGC | -0.284
TACGACTA | 0.00083
ACAATCAA | 0.0814
AGCTTCGG | -0.226

Sample 5
Target: Ras GTPase-activating protein-binding protein 1, full length (G3BP1, Homo sapiens, UniProt Q13283)
Sequence of UniProt Q13283 (whole entry, looked up): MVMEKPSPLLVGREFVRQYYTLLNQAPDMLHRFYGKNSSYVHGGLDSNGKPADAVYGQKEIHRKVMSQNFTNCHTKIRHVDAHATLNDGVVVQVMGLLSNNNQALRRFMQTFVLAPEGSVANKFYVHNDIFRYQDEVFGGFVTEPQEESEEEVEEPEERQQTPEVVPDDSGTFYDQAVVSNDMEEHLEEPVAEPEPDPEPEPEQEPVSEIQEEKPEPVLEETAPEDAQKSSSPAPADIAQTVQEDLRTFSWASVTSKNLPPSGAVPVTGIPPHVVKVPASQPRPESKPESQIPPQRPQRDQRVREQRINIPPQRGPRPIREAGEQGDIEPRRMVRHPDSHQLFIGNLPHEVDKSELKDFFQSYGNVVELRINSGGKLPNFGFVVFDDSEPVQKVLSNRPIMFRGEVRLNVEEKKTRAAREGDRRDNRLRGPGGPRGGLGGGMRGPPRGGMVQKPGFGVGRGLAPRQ
Technique: RNA Bind-n-Seq
Molecule type: RNA
Medium: in vitro
Tested at: 200 nM
Notes: whole 134-nt RNA, ends assumed
Added: 150 mM LiCl
Relative to: input library
Reading: higher = stronger binding
Each molecule: 7-deaza-guanosine replaces G
All sequences stand within: GGGAGUUCUACAGUCCGACGAUC … UGGAAUUCUCGGGUGUCAAGG
Oligonucleotide | log2 enrichment
CCUGUGCUACACAUCGUAUGUACCGAAUCGGGGUUUUUUUGGGGUUUUUGGGGAAAGGGGAAAGUAUUAUGUUACGCCGUUCGGAUCUGC | 0.654
CCUGUGCUACACAUCGUAUGUACCGAAUCGGAAAAAAAGGGGAAAAAAAGGAAAAAAAGGGAAAGUAUUAUGUUACGCCGUUCGGAUCUG | 0.0661
CAAGUCCUGUGCUACACAUCGUAUGUACCGAAUCGGGGAAAAGGAAAAGGAAAAGGAAAGUAUUAUGUUACGCCGUUCGGAUCUGCACUU | -0.994
AGUCCUGUGCUACACAUCGUAUGUACCGAAUCGGGUUUGGGUUUGGGUUUUUUUGGGAAAGUAUUAUGUUACGCCGUUCGGAUCUGCACU | -0.861
CUCAAGUCCUGUGCUACACAUCGUAUGUACCGAAUCGGAAGGGGAAGGAAGGGGAAAGUAUUAUGUUACGCCGUUCGGAUCUGCACUUCC | 0.149
AGUCCUGUGCUACACAUCGUAUGUACCGAAUCGGGAGGGUUUUUUUGGGUUUUUGGGAAAGUAUUAUGUUACGCCGUUCGGAUCUGCACU | -0.856
UGGUUCUGGCAUUUAUGACCCUUGUGAAAAAGAAGCCACUGAUGCUAUUGGGCAUCUAGACAGACAGCAACGGGAAGAUAUCACACAGAG | -0.864
AGUCCUGUGCUACACAUCGUAUGUACCGAAUCGGGAAAGGGUUUGGGAAAAAAAGGGAAAGUAUUAUGUUACGCCGUUCGGAUCUGCACU | -1.82
UGGGAGGUAGAUUUUGUUUAUUUUUUUAGCUCAUUUCCAGGGGUGGGAAUUUUUUUUUAAUAUGUGUCAUGAAUAAAGUUGUUUUUGAAA | 0.539
UCUCUUGCUCAAGUUUUCUCUCACAGAUGACAGCCACCUACCACAUAACAUGACCAGCAAACGGACUGUUCCUAGUCCAGAGGGCCUUGC | 1.46
UCCUGUGCUACACAUCGUAUGUACCGAAUCGGUUUUUUGGGUUUUUUGGGUUUUUUGGGAAAGUAUUAUGUUACGCCGUUCGGAUCUGCA | 0.268
